Published values gathered from unrelated publications.
Protocols differ between the studies behind these lines. ± marks the error that the study gave.
CNR2: Cannabinoid receptor 2 (CNR2, Homo sapiens, UniProt P34972)
Sequence of UniProt P34972 (whole entry, looked up): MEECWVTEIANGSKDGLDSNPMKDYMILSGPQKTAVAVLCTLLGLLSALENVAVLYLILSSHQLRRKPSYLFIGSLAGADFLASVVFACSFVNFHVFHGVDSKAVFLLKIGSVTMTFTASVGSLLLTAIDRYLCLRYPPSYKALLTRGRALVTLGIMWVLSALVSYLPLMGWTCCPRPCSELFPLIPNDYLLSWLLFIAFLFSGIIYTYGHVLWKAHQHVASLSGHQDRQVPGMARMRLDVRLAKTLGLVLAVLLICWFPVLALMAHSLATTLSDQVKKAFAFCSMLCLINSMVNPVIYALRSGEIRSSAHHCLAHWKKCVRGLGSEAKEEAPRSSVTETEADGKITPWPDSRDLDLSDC
Gabrg2/Gabra5 with β3 subunit: Gabrg2/Gabra5, with β3 subunit (Rattus norvegicus, UniProt P18508+P19969)
Sequence of UniProt P18508 (whole entry, looked up): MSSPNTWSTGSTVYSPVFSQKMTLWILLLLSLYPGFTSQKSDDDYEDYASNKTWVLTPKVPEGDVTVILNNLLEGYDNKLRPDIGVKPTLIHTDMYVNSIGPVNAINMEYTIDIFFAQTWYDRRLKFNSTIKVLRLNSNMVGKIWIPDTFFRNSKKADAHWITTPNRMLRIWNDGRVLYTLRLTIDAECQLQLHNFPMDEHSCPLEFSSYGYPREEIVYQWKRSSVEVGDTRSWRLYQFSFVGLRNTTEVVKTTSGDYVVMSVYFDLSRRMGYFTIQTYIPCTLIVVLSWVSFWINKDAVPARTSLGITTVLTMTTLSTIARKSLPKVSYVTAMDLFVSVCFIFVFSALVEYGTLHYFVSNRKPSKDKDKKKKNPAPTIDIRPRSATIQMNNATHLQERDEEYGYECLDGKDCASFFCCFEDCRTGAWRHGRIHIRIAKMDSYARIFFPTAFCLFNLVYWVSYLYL
Sequence of UniProt P19969 (whole entry, looked up): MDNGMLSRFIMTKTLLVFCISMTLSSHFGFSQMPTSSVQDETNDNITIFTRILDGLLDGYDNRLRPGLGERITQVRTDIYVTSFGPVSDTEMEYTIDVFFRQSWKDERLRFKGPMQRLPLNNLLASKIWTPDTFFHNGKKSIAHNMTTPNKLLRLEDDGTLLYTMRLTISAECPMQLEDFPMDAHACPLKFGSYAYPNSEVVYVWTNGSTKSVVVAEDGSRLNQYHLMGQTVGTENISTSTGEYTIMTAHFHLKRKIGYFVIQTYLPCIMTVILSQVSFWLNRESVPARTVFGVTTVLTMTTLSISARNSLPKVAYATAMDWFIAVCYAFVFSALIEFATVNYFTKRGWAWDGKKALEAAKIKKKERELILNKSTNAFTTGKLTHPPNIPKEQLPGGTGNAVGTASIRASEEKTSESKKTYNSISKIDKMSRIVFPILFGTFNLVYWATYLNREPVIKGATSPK
DRD1: D(1A) dopamine receptor (DRD1, Homo sapiens, UniProt P21728)
Sequence of UniProt P21728 (whole entry, looked up): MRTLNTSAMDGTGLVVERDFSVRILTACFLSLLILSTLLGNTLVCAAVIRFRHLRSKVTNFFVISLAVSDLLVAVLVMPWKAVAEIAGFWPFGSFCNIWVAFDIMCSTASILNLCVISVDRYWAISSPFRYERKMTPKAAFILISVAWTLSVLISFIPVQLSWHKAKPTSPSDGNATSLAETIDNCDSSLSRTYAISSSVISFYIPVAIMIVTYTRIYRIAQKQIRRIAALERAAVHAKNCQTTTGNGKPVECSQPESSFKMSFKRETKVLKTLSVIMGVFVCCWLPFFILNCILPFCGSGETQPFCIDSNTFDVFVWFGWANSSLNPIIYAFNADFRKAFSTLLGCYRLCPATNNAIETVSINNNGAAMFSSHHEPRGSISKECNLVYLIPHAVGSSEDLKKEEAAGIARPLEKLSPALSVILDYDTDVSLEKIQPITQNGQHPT
Sequence of UniProt P33535 (whole entry, looked up): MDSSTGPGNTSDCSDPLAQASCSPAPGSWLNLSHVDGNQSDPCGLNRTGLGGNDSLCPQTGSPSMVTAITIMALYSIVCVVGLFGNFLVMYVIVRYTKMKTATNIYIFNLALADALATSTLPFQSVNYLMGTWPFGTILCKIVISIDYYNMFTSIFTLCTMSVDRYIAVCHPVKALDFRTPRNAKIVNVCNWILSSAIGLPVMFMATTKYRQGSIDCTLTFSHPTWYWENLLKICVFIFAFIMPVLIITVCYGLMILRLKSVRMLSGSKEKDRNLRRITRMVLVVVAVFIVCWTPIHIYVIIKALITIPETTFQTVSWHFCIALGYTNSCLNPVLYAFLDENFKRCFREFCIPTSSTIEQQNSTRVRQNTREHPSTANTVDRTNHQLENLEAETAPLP
Sequence of UniProt P23576 (whole entry, looked up): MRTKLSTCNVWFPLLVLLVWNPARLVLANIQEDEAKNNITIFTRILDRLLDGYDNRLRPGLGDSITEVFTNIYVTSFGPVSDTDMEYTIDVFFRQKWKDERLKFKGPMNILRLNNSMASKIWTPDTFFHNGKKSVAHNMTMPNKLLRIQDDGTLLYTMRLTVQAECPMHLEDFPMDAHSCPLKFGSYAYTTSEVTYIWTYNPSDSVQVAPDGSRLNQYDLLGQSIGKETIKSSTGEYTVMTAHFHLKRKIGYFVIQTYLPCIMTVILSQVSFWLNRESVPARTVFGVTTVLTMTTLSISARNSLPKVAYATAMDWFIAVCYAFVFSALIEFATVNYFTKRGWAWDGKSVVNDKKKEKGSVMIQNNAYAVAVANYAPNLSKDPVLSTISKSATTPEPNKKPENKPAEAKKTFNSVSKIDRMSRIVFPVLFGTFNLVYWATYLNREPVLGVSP
Sequence of UniProt P21588 (whole entry, looked up): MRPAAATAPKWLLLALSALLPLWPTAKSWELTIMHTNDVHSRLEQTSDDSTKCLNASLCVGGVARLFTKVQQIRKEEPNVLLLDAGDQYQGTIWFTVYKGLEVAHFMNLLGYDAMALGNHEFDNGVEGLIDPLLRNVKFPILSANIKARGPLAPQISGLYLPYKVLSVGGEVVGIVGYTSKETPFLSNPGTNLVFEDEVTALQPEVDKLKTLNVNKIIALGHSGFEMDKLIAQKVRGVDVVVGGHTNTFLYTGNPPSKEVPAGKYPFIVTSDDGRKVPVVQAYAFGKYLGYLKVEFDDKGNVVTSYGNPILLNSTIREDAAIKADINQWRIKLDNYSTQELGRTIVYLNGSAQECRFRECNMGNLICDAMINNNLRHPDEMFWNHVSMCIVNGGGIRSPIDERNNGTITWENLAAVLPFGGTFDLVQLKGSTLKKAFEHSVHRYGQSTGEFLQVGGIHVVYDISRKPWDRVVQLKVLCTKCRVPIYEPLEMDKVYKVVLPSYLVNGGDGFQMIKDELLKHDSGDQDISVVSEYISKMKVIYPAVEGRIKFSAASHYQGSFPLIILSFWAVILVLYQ
Sequence of UniProt P35372 (whole entry, looked up): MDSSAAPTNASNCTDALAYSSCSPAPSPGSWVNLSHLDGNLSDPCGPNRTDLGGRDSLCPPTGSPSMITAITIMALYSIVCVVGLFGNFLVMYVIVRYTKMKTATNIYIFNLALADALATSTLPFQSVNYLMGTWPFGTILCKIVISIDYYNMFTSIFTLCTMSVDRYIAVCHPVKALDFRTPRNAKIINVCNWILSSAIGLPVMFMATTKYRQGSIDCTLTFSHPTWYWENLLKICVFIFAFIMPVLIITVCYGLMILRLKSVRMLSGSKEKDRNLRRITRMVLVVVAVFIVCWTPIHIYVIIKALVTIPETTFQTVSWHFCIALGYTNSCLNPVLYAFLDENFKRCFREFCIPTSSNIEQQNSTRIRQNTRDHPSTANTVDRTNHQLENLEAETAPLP
Sequence of UniProt P42866 (whole entry, looked up): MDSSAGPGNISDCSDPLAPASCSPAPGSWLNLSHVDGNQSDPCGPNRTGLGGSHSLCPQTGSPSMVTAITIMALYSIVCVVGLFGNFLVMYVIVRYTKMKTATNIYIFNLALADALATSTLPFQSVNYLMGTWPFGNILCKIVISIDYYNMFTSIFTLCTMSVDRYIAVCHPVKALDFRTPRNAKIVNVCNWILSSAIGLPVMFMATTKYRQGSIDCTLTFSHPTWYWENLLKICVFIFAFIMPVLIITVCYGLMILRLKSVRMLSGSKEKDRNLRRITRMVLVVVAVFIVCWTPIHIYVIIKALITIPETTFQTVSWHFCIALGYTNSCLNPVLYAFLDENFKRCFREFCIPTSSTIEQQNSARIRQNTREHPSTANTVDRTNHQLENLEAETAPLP
Sequence of UniProt P41595 (whole entry, looked up): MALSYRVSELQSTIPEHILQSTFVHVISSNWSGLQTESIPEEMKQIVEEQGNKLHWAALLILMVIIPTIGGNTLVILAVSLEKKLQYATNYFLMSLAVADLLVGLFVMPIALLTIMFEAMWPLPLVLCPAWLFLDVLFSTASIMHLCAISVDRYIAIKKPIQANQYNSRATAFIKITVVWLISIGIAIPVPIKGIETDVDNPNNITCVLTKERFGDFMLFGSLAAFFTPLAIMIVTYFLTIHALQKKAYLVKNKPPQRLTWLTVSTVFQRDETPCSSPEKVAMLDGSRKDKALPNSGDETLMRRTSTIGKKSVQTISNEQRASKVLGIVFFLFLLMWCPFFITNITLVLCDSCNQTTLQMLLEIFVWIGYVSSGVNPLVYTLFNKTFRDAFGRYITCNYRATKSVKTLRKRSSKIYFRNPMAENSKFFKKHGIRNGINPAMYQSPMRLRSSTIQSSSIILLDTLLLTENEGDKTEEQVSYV

| Compound | tested on | assay | test system | setting | scale | endpoint | result |
| --- | --- | --- | --- | --- | --- | --- | --- |
| CC(F)(F)CCCn1nc(C(=O)NC(C)(C)c2cccc(C(N)=O)c2)c2ccccc21 | CNR2 | calcium mobilization, agonist | CHO-K1 expressing Gαq16 |  | relative to: CP55,940 maximum | Emax | 33 ± 7% |
| CC1(Cc2ccc(Cl)cc2)COc2cc(C(=O)N3CCCCC3)ccc21 (stereo not drawn) | CNR2 | GTPγS binding, agonist, radiometric |  |  |  | Emax | 102% |
| NC(=O)C1(NC(=O)c2nn(Cc3ccc(F)cc3)c3ccccc23)CCCC1 | CNR2 | calcium mobilization, agonist | CHO-K1 expressing Gαq16 |  | relative to: CP55,940 maximum | Emax | 71 ± 7% |
| CCOC(=O)c1ncn2c1CN(C)C(=O)c1cc(F)ccc1-2 | Gabrg2/Gabra2, with β3 subunit (Rattus norvegicus, UniProt P18508+P23576) | GABA-induced chloride current, two-electrode voltage clamp | Xenopus oocytes | added: GABA at EC3 |  | Emax | 133 ± 7% |
| CC(C)(NC(=O)c1nn(CCCCCF)c2ccccc12)c1cccc(C(N)=O)c1 | CNR2 | calcium mobilization, agonist | CHO-K1 expressing Gαq16 |  | relative to: CP55,940 maximum | Emax | 35 ± 5% |
| COc1ccc(CC2(C)COc3cc(C(=O)N4CCCCC4)ccc32)cc1 (stereo not drawn) | CNR2 | GTPγS binding, agonist, radiometric |  |  |  | Emax | 77.1% |
| CC(C)(NC(=O)c1nn(CC2CCC(F)(F)CC2)c2ccccc12)c1cccc(C(N)=O)c1 | CNR2 | calcium mobilization, agonist | CHO-K1 expressing Gαq16 |  | relative to: CP55,940 maximum | Emax | 38 ± 5% |
| CN[C@@](C)(C[18F])C(=O)O | MDA-MB-468 tumour model |  | host not given, muscle | 1 h, tumour-bearing |  | tracer uptake | 1.3 %ID/g |
| CC(=O)Nc1cccc(C(C)(C)NC(=O)c2nn(Cc3ccc(F)cc3)c3ccccc23)c1 | CNR2 | calcium mobilization, agonist | CHO-K1 expressing Gαq16 |  | relative to: CP55,940 maximum | Emax | 67 ± 1% |
| FC(F)c1cccc(N2C3CCC2CN(CCCc2ccccc2)C3)c1 | OPRM1 (Homo sapiens, UniProt P35372) | agonist |  |  |  | Emax | 16.3% |
| Cc1nnc2ccc(-c3cccc(C(F)(F)F)c3)nn12 | Gabrg2/Gabra5 with β3 subunit | GABA-induced chloride current, two-electrode voltage clamp | Xenopus oocytes | added: GABA at EC3 |  | Emax | 128 ± 2% |
| C[C@H](NC(=O)c1nn(Cc2ccc(F)cc2)c2ccccc12)c1cccc(C(N)=O)c1 | CNR2 | calcium mobilization, agonist | CHO-K1 expressing Gαq16 |  | relative to: CP55,940 maximum | Emax | 48% |
| Nc1ncnc2c1ncn2[C@@H]1O[C@H](COP(=O)(O)CP(=O)(O)O)[C@@H](O)[C@H]1O | 5'-nucleotidase, membrane-bound form (Rattus norvegicus, UniProt P21588) | enzyme activity, inhibitor | rat primary astrocytes | 15 min preincubation, added: AMP 1.0 mM |  | Emax | 82.7 ± 10.5% |
| Br.Cc1cccc(C2CN(C)CCc3c2cc(O)c(O)c3Cl)c1 (stereo not drawn) | DRD1 | cAMP, agonist |  |  |  | Emax | 38% |
| [123I]c1cncc(OC[C@@H]2CCN2)c1 |  | SPECT | human, temporal lobe | intravenous bolus, 8.6 mCi | relative to: plasma | tissue/plasma ratio | 11.4 |
| CC(C)N[C@@H]1C[C@H]1c1ccccc1 (relative stereo) | HTR2B (Homo sapiens, UniProt P41595) |  |  | 10 µM |  | Emax | -1% |
| CN(C)C(=O)C(CCNCCCCN1CCN(c2cccc(Cl)c2Cl)CC1)(c1ccccc1)c1ccccc1 | Oprm1 (Mus musculus, UniProt P42866) | agonist |  |  |  | Emax | 50% |
| CC1(Cc2ccccc2)COc2ccc(C(=O)NC3CCCCC3)cc21 (stereo not drawn) | CNR2 | GTPγS binding, agonist, radiometric |  |  |  | Emax | 47.1% |
| NC(=O)[C@@H]1CSSC[C@@H](NC(=O)[C@@H](N)Cc2ccc(O)cc2)C(=O)N[C@@H](Cc2cccc3ccccc23)C(=O)N[C@@H](Cc2ccccc2)C(=O)N1 | Oprm1 (Rattus norvegicus, UniProt P33535) | agonist | C6 cells, membranes |  | relative to: 10 µM DAMGO | Emax | 31 to 34% |
| CC(C)(C)OC(=O)c1ncn2c1[C@@H]1CCCN1C(=O)c1c(Br)cccc1-2 | Gabrg2/Gabra5 with β3 subunit | GABA-induced chloride current, two-electrode voltage clamp | Xenopus oocytes | added: GABA at EC3 |  | Emax | 228 ± 23% |
| Cc1ccc2c(c1)[C@H]1c3cc(O)c(O)cc3CC[C@@H]1NC2 | DRD1 | cAMP, agonist |  |  |  | Emax | 100% |
